Measured values of several laboratories.
Each line is one published result; not all experiments were run side by side. Values joined by “and” are separate records of one study, mostly repeats; a detail may differ. ± marks the error that the study gave.
CHRNA1/CHRNG/CHRND: CHRNA1/CHRNG/CHRND (Homo sapiens, UniProt P02708+P07510+Q07001)
Chain of UniProt P07510 (whole entry, looked up): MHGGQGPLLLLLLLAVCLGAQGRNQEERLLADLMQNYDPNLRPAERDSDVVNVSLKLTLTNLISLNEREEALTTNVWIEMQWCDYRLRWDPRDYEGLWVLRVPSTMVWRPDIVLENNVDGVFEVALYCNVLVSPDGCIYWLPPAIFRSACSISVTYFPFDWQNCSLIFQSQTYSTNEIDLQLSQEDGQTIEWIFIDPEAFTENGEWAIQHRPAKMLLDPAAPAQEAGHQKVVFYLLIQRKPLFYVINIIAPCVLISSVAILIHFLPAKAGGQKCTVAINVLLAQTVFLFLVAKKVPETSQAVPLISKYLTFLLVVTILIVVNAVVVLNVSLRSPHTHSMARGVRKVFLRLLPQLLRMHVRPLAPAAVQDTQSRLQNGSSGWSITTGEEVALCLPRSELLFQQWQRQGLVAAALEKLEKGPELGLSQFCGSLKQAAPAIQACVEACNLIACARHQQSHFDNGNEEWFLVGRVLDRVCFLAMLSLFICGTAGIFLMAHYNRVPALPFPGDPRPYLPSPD
Chain of UniProt P02708 (whole entry, looked up): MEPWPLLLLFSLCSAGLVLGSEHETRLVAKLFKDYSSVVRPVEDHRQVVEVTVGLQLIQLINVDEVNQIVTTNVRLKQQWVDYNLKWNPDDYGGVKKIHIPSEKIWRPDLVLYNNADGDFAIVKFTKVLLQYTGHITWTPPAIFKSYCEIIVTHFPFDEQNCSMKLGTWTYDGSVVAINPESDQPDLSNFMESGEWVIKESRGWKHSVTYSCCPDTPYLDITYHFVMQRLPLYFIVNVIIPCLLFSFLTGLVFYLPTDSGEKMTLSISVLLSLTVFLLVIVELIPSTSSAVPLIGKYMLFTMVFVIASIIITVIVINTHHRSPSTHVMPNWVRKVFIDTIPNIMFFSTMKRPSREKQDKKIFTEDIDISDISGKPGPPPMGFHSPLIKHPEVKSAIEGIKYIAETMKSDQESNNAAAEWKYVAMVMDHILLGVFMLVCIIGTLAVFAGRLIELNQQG
Chain of UniProt Q07001 (whole entry, looked up): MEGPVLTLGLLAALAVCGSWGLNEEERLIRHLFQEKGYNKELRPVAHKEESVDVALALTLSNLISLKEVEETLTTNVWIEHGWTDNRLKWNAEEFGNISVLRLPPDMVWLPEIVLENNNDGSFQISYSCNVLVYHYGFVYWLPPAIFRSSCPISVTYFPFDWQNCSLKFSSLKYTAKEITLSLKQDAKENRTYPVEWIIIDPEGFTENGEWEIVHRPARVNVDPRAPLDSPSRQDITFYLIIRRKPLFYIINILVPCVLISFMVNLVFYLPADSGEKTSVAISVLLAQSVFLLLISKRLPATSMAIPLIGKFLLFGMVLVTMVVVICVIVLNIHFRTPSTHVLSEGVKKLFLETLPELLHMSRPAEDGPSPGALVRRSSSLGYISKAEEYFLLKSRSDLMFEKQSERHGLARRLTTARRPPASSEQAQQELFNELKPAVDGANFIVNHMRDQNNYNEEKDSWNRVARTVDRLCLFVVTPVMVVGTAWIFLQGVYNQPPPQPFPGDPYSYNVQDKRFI
rep main protease: Replicase polyprotein 1ab, main protease (rep, Severe acute respiratory syndrome coronavirus 2, UniProt P0DTD1)
plsY3: Glycerol-3-phosphate acyltransferase 3 (plsY3, Bacillus anthracis, UniProt Q81Y92)
Chain of UniProt Q81Y92 (whole entry, looked up): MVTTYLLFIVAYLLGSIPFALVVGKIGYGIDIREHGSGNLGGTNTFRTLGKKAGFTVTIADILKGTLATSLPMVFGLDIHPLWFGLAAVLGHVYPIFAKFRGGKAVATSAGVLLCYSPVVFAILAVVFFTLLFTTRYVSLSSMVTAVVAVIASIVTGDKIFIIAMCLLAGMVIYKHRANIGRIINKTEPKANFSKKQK
Chain of UniProt Q9BYF1 (whole entry, looked up): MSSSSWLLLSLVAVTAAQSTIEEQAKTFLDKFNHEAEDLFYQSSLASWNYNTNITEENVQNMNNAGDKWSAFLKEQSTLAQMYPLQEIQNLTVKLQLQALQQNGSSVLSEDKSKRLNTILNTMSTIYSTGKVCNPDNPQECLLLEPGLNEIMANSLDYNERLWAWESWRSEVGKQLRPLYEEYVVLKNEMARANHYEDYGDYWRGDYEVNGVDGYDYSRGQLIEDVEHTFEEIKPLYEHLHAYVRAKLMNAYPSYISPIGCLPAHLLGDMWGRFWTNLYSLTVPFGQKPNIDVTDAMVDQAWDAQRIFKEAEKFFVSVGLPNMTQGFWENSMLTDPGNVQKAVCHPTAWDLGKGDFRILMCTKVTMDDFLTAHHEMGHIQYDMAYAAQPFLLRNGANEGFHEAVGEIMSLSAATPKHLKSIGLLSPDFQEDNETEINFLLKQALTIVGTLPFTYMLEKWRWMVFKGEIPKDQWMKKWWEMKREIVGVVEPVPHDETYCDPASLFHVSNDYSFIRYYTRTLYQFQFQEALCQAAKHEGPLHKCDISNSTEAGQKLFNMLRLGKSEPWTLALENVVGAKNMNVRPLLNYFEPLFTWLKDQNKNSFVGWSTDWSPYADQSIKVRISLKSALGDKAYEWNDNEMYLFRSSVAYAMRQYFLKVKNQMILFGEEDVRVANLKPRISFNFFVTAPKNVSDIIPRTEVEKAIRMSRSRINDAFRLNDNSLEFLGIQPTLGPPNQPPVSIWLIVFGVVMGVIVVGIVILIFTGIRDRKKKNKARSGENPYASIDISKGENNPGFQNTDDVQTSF
Chain of UniProt Q5XXP4 (whole entry, looked up): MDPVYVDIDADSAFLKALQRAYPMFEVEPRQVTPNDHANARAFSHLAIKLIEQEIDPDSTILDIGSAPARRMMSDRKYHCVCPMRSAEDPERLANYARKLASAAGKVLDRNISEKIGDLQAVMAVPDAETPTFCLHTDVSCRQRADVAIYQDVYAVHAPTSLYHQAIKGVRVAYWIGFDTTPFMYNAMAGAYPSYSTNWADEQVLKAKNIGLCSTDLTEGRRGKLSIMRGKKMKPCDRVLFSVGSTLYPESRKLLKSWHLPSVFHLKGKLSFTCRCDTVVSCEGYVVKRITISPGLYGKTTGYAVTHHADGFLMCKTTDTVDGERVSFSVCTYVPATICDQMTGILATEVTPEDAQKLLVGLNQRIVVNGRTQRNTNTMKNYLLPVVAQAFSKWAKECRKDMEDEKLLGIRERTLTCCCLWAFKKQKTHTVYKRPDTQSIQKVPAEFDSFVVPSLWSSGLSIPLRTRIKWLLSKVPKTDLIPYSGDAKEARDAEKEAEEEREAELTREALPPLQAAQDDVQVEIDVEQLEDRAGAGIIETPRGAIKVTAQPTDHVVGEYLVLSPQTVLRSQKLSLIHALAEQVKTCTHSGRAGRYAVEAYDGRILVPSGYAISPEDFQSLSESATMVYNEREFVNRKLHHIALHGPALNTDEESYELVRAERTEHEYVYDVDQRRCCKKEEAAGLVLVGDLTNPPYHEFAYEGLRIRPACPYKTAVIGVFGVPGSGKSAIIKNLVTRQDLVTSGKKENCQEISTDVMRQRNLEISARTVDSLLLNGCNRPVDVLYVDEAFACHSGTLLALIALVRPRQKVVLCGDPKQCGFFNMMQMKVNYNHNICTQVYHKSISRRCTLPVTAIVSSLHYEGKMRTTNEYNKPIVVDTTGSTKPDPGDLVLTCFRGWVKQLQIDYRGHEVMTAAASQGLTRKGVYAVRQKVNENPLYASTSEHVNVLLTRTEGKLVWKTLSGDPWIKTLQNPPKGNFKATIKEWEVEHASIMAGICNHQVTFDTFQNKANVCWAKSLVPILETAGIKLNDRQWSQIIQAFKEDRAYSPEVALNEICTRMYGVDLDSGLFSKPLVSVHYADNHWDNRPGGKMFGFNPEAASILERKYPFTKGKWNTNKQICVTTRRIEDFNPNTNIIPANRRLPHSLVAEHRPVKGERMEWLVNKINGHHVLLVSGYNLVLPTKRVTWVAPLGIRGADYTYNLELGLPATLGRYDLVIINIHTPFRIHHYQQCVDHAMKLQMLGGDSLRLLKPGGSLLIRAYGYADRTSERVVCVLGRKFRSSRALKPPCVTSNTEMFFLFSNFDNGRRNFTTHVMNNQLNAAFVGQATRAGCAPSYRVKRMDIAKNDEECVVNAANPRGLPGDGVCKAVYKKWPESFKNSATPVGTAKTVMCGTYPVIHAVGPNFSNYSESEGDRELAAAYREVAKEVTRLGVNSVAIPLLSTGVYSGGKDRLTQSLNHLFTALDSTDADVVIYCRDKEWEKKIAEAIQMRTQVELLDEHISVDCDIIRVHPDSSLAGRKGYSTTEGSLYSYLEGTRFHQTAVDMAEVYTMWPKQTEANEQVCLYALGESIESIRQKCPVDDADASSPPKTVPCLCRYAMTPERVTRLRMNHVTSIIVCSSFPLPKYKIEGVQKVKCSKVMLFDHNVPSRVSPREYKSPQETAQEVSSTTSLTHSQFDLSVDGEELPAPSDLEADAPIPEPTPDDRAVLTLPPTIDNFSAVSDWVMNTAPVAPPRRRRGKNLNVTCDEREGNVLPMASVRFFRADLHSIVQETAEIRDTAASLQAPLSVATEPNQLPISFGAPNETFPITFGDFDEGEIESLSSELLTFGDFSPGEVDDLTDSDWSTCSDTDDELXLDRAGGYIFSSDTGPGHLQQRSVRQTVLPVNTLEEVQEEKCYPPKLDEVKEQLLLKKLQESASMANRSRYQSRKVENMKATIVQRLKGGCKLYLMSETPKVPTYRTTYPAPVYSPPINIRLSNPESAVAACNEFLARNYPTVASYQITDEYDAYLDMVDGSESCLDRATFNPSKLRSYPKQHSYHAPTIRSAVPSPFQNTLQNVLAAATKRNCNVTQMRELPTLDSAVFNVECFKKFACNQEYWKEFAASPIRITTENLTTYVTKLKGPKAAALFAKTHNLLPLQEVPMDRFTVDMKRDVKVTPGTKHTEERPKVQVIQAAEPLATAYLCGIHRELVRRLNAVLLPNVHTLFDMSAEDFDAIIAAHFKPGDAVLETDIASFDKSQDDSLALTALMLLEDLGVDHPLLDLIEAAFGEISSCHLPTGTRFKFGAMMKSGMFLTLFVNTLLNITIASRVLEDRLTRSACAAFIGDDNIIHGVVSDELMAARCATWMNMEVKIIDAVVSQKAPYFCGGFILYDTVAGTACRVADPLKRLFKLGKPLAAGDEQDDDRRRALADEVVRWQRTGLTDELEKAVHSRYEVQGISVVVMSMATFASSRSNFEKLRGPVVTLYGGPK

With `CC(C)CC(=O)OC[C@H]1O[C@@](C#N)(c2ccc3c(N)ncnn23)[C@H](O)[C@@H]1O` the inhibition was -7% (CHRNA1/CHRNG/CHRND; 20 µM).
`Cc1cncc(CC(=O)N2CCC[C@@H]([C@@H]3CCN(C(=O)c4cnn5cccnc45)C3)C2)c1` has an inhibition of 11.1% (rep main protease; enzyme activity, inhibitor; 5 µM, run 2).
`CC[C@H](C)[C@H](NC(=O)[C@H](CC(C)C)NC(=O)[C@H](Cc1c[nH]c2ccccc12)NC(=O)[C@H](CCC(N)=O)NC(=O)[C@@H](NC(=O)[C@H](Cc1ccccc1)NC(=O)[C@H](C)NC(=O)[C@H](CCCCNC(=O)COCCOCCNC(=O)COCCOCCNC(=O)CC[C@H](NC(=O)CCCCCCCCCCCCCCCCCCC(=O)O)C(=O)O)NC(=O)[C@H](CCC(N)=O)NC(=O)[C@H](C)NC(=O)[C@@H](NC(=O)[C@H](CCCCN)NC(=O)[C@H](CC(=O)O)NC(=O)[C@H](CC(C)C)NC(=O)C(C)(C)NC(=O)[C@@H](NC(=O)[C@H](CO)NC(=O)[C@H](Cc1ccc(O)cc1)NC(=O)[C@H](CC(=O)O)NC(=O)[C@H](CO)NC(=O)[C@@H](NC(=O)[C@H](Cc1ccccc1)NC(=O)[C@@H](NC(=O)CNC(=O)[C@H](CCC(=O)O)NC(=O)C(C)(C)NC(=O)[C@@H](N)Cc1ccc(O)cc1)[C@@H](C)O)[C@@H](C)O)[C@@H](C)CC)[C@@H](C)CC)C(C)C)C(=O)N[C@@H](C)C(=O)NCC(=O)NCC(=O)N1CCC[C@H]1C(=O)N[C@@H](CO)C(=O)N[C@@H](CO)C(=O)NCC(=O)N[C@@H](C)C(=O)N1CCC[C@H]1C(=O)N1CCC[C@H]1C(=O)N1CCC[C@H]1C(=O)N[C@@H](CO)C(N)=O` — result for “subjects with any TEAE”: 85.7% (healthy subjects; all MAD doses).
For `O=C(N[C@@H]1CC[C@@H]2CCN(c3nc4[nH]ncc4c(=O)[nH]3)[C@H]1C2)c1ccc2c(c1)C(=O)NCC2`, the inhibition was 11.2% (rep main protease; enzyme activity, inhibitor; 5 µM, run 2).
For `Oc1ccc(C2=Cc3ccc(O)cc3OC2)cc1`, the inhibition was -3.13% (rep main protease; reporter gene (Gaussia luciferase), inhibitor; 20 µM).
With `Nc1ncnc2c([C@@H]3N[C@H](CO)[C@@H](O)[C@H]3O)c[nH]c12` the inhibition was 15.1% (Nipah henipavirus; viral replication; HeLa, Malaysia; 0.8 µM).
For `O=C1NCc2ccc(C(=O)N3CCC[C@@H]([C@H]4CCN(C(=O)c5cn[nH]c(=O)c5)C4)C3)cc2N1`, the inhibition was 11.5% (rep main protease; enzyme activity, inhibitor; 5 µM, mean of runs).
`CC[C@H](C)[C@H](NC(=O)[C@H]([C@@H](C)CC)N(C)C(C)=O)C(=O)N[C@H](C(=O)N[C@@H](CC(C)C)C(=O)[C@@]1(C)CO1)[C@@H](C)O` has an inhibition of -1.09% (rep main protease; reporter gene (mKate2), inhibitor; 20 µM).
The inhibition of `COc1ccc(C(O)c2[nH]c3ccc(OC)cc3c2CCNC(C)=O)cc1` (stereo not shown) is reported as 20 to 30% (Angiotensin-converting enzyme 2, with SARS-CoV-2 spike RBD (ACE2, Homo sapiens, UniProt Q9BYF1); RBD binding, TR-FRET; 100 µM, together with: RBD-d2 5 nM).
`C[C@@H]1Cc2c(Cl)cc(C(=O)N[C@H](Cc3ccccc3)C(=O)O)c(O)c2C(=O)O1` — result for “body weight to egg weight ratio”: 73.1 ± 3.8 (chicken embryo; in ovo injection, 0.75 µg/egg).
`C=CCCCCCCCCC(=O)C(F)(F)P(=O)(O)O` has an inhibition of 29% (plsY3; inhibitor; 200 µM).
The inhibition of `CC(C)c1cccc(C(C)C)c1N1C(=O)c2ccc(N)cc2C1=O` is reported as -0.276% (rep main protease; viral replication, Gluc reporter; SARS-CoV-2; 20 µM).
`O=C(CCl)NNC(=O)c1cc2c(Cl)cccc2s1` gave an inhibition of 101% (Polyprotein P1234, nsP2 protease domain (Chikungunya virus, UniProt Q5XXP4); protease activity, FRET; 20 µM).
With `O=C(Nc1cnccc1Cl)N1CCN(Cc2ccc3c(c2)OC(F)(F)O3)CC1` the inhibition was 1% (strychnine-sensitive glycine receptor, rat; binding; 10 µM, together with: [3H]strychnine).
For `O=C(NC[C@@H]1Cc2ccccc2CN1C(=O)c1nnn2ccccc12)c1cccc2[nH]ncc12`, the inhibition was 12.8% (rep main protease; enzyme activity, inhibitor; 5 µM, run 2).
`COc1ccc2c(Sc3ccccc3)c(C(=O)NCCCN3CCCCC3)[nH]c2c1` has a maximum response of 76% (SARS-CoV-2; cytopathic effect; USA_WA1/2020; retest, 8-point, duplicates).
The inhibition of `CC(C)N1CCC[C@H]1CNC(=O)c1cn(C2CCCC2)c(=O)c2c1c1ccccc1n2C` is reported as 1% (CHRNA1/CHRNG/CHRND; radioligand binding; 10 µM).
The remaining activity of `CNC(=O)[C@@H](NC(=O)[C@H](CC(C)C)[C@H](O)C(=O)NO)C(C)(C)C` is reported as 97.3% and 97.6% and 98% (Daboia russelii venom proteases (SVMP); protease activity, inhibitor; GA population; 0.01 µM, together with: azocasein substrate; relative to: venom alone).
`CC[C@H](C)[C@H](NC(=O)[C@H](CC(C)C)NC(=O)[C@H](Cc1c[nH]c2ccccc12)NC(=O)[C@H](CCC(N)=O)NC(=O)[C@@H](NC(=O)[C@H](Cc1ccccc1)NC(=O)[C@H](C)NC(=O)[C@H](CCCCNC(=O)COCCOCCNC(=O)COCCOCCNC(=O)CC[C@H](NC(=O)CCCCCCCCCCCCCCCCCCC(=O)O)C(=O)O)NC(=O)[C@H](CCC(N)=O)NC(=O)[C@H](C)NC(=O)[C@@H](NC(=O)[C@H](CCCCN)NC(=O)[C@H](CC(=O)O)NC(=O)[C@H](CC(C)C)NC(=O)C(C)(C)NC(=O)[C@@H](NC(=O)[C@H](CO)NC(=O)[C@H](Cc1ccc(O)cc1)NC(=O)[C@H](CC(=O)O)NC(=O)[C@H](CO)NC(=O)[C@@H](NC(=O)[C@H](Cc1ccccc1)NC(=O)[C@@H](NC(=O)CNC(=O)[C@H](CCC(=O)O)NC(=O)CCNC(=O)C(C)(C)c1cc(F)cc(C#N)c1)[C@@H](C)O)[C@@H](C)O)[C@@H](C)CC)[C@@H](C)CC)C(C)C)C(=O)N[C@@H](C)C(=O)NCC(=O)NCC(=O)N1CCC[C@H]1C(=O)N[C@@H](CO)C(=O)N[C@@H](CO)C(=O)NCC(=O)N[C@@H](C)C(=O)N1CCC[C@H]1C(=O)N1CCC[C@H]1C(=O)N1CCC[C@H]1C(=O)N[C@@H](CO)C(N)=O`: “treatment-emergent adverse events” 50% (measured: Diarrhea; human with obesity or overweight; subcutaneous, up to 5 mg once weekly, multiple ascending dose).
For `COP(=S)(OC)Oc1ccc([N+](=O)[O-])c(C)c1`, the Ki was 36.1 ± 12.6 µM (rat CYP2C; tolbutamide hydroxylation, non-competitive inhibitor; rat Sprague-Dawley, liver microsomes; 30 min, pH 7.4, together with: tolbutamide 1 to 10 mM).
For `CCOC(=O)CCN(C(=O)c1ccc2c(c1)nc(CNc1ccc(C(=N)N)cc1)n2C)c1ccccn1.Cl`, the inhibition was 1.97% (rep main protease; reporter gene (Gaussia luciferase), inhibitor; 20 µM).
With `CCCCCC/C=C\CCCCCCCCCC(=O)CP(=O)(O)O` the inhibition was 40% (plsY3; inhibitor; 200 µM).
`Cc1cnc(C(=O)N[C@H]2CCCCC/C=C\[C@@H]3C[C@@]3(C(=O)NS(=O)(=O)C3CC3)NC(=O)[C@@H]3C[C@@H](Oc4nc5ccccc5c5ccccc45)CN3C2=O)cn1` has an inhibition of 0.984% (rep main protease; reporter gene (mKate2), inhibitor; 20 µM).
`O=C(NC[C@H]1CC2(CCC2)CN1C(=O)Cc1ccccc1O)c1ccc2c(c1)CCNC2=O` gave an inhibition of 17.6% (rep main protease; enzyme activity, inhibitor; 5 µM, run 1).
Under “patients with adverse event”, `Cn1cnc(Cn2c(=O)[nH]/c(=N\c3cc4cn(C)nc4cc3Cl)n(Cc3cc(F)c(F)cc3F)c2=O)n1` is recorded as 0% (human, severe renal impairment; oral, 375 mg, hypertriglyceridaemia TEAE, Severe severity).

For quick reference, copied from above:
For `O=C(NC[C@@H]1Cc2ccccc2CN1C(=O)c1nnn2ccccc12)c1cccc2[nH]ncc12`, the inhibition was 12.8% (rep main protease; enzyme activity, inhibitor; 5 µM, run 2).
The inhibition of `COc1ccc(C(O)c2[nH]c3ccc(OC)cc3c2CCNC(C)=O)cc1` (stereo not shown) is reported as 20 to 30% (Angiotensin-converting enzyme 2, with SARS-CoV-2 spike RBD (ACE2, Homo sapiens, UniProt Q9BYF1); RBD binding, TR-FRET; 100 µM, together with: RBD-d2 5 nM).
`O=C(CCl)NNC(=O)c1cc2c(Cl)cccc2s1` gave an inhibition of 101% (Polyprotein P1234, nsP2 protease domain (Chikungunya virus, UniProt Q5XXP4); protease activity, FRET; 20 µM).
With `Nc1ncnc2c([C@@H]3N[C@H](CO)[C@@H](O)[C@H]3O)c[nH]c12` the inhibition was 15.1% (Nipah henipavirus; viral replication; HeLa, Malaysia; 0.8 µM).
